Measured values from different studies.
Numbered parts are unrelated; each lists some results of a single study. Values joined by “and” are separate records of one study, mostly repeats; a detail may differ.

Series 1
SMILES: O=C1CCC(N2Cc3c(ccc4c3OCC43CCN(Cc4ccccc4)CC3)C2=O)C(=O)N1 (stereo not drawn)
assay	system	conditions	half-life
	ICR mouse, male, plasma	oral, 3.0 mg/kg	4.24 h and 3.04 h and 1.38 h
	Sprague Dawley rat, male, plasma	oral, 3.0 mg/kg	1.3 h
	ICR mouse, male, plasma	intravenous, 1.0 mg/kg	1.65 h
metabolic stability	human, liver microsomes	1 µM	1.39 h
	male CD-1 mouse, plasma	oral, 3 mg/kg	2.89 h
metabolic stability	rat, liver microsomes	1 µM	1.88 h
	male ICR mice, plasma	intravenous, 1.0 mg/kg	1.2 h and 2.05 h
	male ICR mice, plasma	oral, 3.0 mg/kg	4.24 h and 3.04 h and 1.38 h

Series 2
Target: Sodium-dependent dopamine transporter (SLC6A3, Homo sapiens, UniProt Q01959)
UniProt Q01959, sequence (whole entry, looked up): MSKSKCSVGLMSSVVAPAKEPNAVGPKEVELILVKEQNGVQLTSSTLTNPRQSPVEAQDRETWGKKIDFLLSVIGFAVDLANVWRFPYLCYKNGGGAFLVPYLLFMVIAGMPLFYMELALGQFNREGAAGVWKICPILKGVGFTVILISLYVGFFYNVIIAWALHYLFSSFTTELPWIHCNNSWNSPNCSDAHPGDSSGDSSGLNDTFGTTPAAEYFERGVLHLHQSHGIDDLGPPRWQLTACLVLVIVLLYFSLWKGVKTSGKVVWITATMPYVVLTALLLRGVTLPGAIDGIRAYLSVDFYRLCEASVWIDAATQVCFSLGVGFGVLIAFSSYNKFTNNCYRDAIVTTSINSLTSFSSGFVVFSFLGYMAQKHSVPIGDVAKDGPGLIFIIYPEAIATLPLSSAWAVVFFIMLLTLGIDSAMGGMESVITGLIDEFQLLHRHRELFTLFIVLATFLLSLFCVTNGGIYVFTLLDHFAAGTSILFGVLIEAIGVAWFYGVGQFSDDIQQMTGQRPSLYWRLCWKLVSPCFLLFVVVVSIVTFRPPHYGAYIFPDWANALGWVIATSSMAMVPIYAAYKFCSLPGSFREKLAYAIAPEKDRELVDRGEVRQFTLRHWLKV
Read-out: binding
Method: radioligand binding
SMILES	Ki [µM]
N#CN1CC[C@@H](C(=O)Nc2nc3c(s2)CN(C(=O)CN=[N+]=[N-])CC3)C1	> 10
O=C(NNS(=O)(=O)c1ccccc1)c1cc(-c2ccnnc2)ccc1F	> 10
O=C(Nc1ccc(-n2nc(-c3cccnc3)cc2C(F)(F)F)cn1)c1ccc(-c2ccccc2)c(F)c1	> 10
Cc1ccc(-c2cnc([C@@]3(O)CC[C@H](C(=O)O)C(C)(C)C3)s2)cc1Nc1cccc(C(F)(F)F)n1	> 10
O=C1c2ccc(Nc3ccc(F)cc3F)cc2CCc2ccc(OC[C@H](O)CO)cc21	> 10

Series 3
Target: Beta-1 adrenergic receptor (ADRB1, Homo sapiens, UniProt P08588)
UniProt P08588, sequence (whole entry, looked up): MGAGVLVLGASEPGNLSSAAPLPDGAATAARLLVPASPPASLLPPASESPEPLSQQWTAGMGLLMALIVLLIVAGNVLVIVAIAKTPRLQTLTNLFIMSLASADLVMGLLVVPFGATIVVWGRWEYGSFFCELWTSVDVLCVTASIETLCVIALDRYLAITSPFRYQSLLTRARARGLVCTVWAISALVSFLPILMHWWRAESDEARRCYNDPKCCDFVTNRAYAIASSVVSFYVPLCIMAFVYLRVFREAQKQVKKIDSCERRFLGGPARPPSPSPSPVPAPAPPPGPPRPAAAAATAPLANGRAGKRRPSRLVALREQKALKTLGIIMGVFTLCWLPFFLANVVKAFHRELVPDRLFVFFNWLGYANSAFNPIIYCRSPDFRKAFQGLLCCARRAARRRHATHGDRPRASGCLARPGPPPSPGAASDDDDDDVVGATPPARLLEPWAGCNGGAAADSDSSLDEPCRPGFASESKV
Action: antagonist
Structure (SMILES)	IC50 [µM]
Oc1ccc(OC[C@@H]2CNCC[C@H]2c2ccc(F)cc2)cc1O	≥ 100
CNCCc1ccc(O)c(O)c1	≥ 100
Cc1[nH]c2ccc(O)cc2c1CCN	≥ 100
CCC(O)c1cc2n(n1)CCN(c1nc(-c3ccccc3)nc3c1CCC3)C2 (stereo not drawn)	≥ 100

Single results of other studies
SMILES	system	conditions	quantity	result
Clc1ncccc1C1Cc2ccccc2C2=NCCN21 (stereo not drawn)	mouse, microsomes or S9	2 µM, 0.5 h	remaining compound	77.9%

Excerpt of the above (series 2):
SMILES	Ki [µM]
O=C(NNS(=O)(=O)c1ccccc1)c1cc(-c2ccnnc2)ccc1F	> 10
O=C(Nc1ccc(-n2nc(-c3cccnc3)cc2C(F)(F)F)cn1)c1ccc(-c2ccccc2)c(F)c1	> 10
